Results pooled from the literature.
Protocols differ between the studies behind these lines.
Organism: Staphylococcus aureus

SMILES | test | test system | conditions | MIC
C#CCOc1ccc(CN[C@@]2(C)C[C@H](O[C@H]3[C@H](Oc4c5cc6cc4Oc4ccc(cc4Cl)[C@@H](O)[C@@H](NC(=O)[C@@H](CC(C)C)NC)C(=O)N[C@@H](CC(N)=O)C(=O)N[C@H]6C(=O)N[C@H]4C(=O)N[C@H](C(=O)N[C@H](C(=O)N[C@@H](CCCNC(=N)N)C(N)=O)c6cc(O)cc(O)c6-c6cc4ccc6O)[C@H](O)c4ccc(c(Cl)c4)O5)O[C@H](CO)[C@@H](O)[C@@H]3O)O[C@@H](C)[C@H]2O)cc1OC |  | MRSA USA300 |  | 0.281 µM
CC(C)C[C@H](NC(=O)[C@H](CC(C)C)NC(=O)[C@H](CCCCN)NC(=O)[C@H](Cc1ccccc1)NC(=O)[C@@H](NC(=O)[C@H](CCCNC(=N)N)NC(=O)[C@H](CCCCN)NC(=O)[C@H](Cc1c[nH]c2ccccc12)NC(=O)[C@@H](NC(=O)[C@@H](N)CCCNC(=N)N)C(C)C)C(C)C)C(=O)N[C@@H](CCCCN)C(=O)N[C@@H](CCCNC(=N)N)C(=O)N[C@@H](Cc1ccc(O)cc1)C(=O)N[C@@H](Cc1c[nH]c2ccccc12)C(=O)N[C@@H](CCCNC(=N)N)C(N)=O | broth microdilution | 25295 |  | 0.6 µg/mL
CC[C@H](C)[C@@H]1NC(=O)[C@H](CO)NC(=O)[C@H](CCCCN)NC(=O)[C@@H]2CSSC[C@@H](C(=O)N[C@@H](Cc3ccc(O)cc3)C(N)=O)NC(=O)[C@H](CCCCN)NC(=O)[C@@H]3CSSC[C@H](NC(=O)[C@H](CCCNC(=N)N)NC(=O)[C@H](CC(C)C)NC(=O)[C@H](CC(=O)O)NC(=O)[C@H](CC(=O)O)NC(=O)[C@H](CCC(=O)O)NC(=O)[C@H](CC(N)=O)NC(=O)[C@H](Cc4c[nH]c5ccccc45)NC(=O)C(C)(CC)NC(=O)CNC(=O)[C@H](CC(N)=O)NC(=O)[C@@H](NC(=O)CNC(=O)[C@H](Cc4ccccc4)NC(=O)CN)CSSC[C@H](NC(=O)[C@H](Cc4ccc(O)cc4)NC(=O)CNC(=O)CNC(=O)[C@H](CCCCN)NC(=O)[C@H](Cc4ccc(O)cc4)NC(=O)[C@H]4CCCN4C(=O)[C@@H]4CCCN4C1=O)C(=O)N[C@@H](C)C(=O)N[C@@H](CCCCN)C(=O)N1CCC[C@@H]1C(=O)NCC(=O)N[C@@H](Cc1ccccc1)C(=O)N[C@@H](C(C)C)C(=O)N3)C(=O)N[C@@H](Cc1c[nH]cn1)C(=O)N[C@@H](CC(N)=O)C(=O)N[C@@H](Cc1c[nH]cn1)C(=O)N2 (stereo partly shown) | broth microdilution | USA300 MRSA | 18 h | 2 µM
CC[C@H](C)[C@H](NC(=O)[C@@H]1CCCN1C(=O)[C@H](CC(C)C)NC(=O)[C@@H](N)CC(C)C)C(=O)N[C@H](C(=O)NCC(=O)N[C@@H](CC(N)=O)C(=O)N[C@@H](CC(C)C)C(=O)N[C@@H](CC(C)C)C(=O)N[C@@H](CCCCN)C(=O)N[C@@H](CO)C(=O)N[C@@H](CC(C)C)C(=O)N[C@@H](CC(C)C)C(N)=O)C(C)C | broth dilution | ATCC 25923 | 24 h, 37 °C | 16 µg/mL
CC(C)C[C@H](NC(=O)[C@H](CCCCN)NC(=O)C1CCCC=CCCC(NC(=O)[C@H](CCCCN)NC(=O)[C@@H](N)CC(C)C)C(=O)N[C@@H](CCCCN)C(=O)NC2CCC=CCCCC(NC(=O)[C@H](CCCCN)NC(=O)CNC(=O)[C@H]3CCCN3C(=O)[C@H](CCCCN)NC2=O)C(=O)N[C@@H](CCCCN)C(=O)N1)C(N)=O (stereo partly shown) | broth microdilution | ATCC 29737, Mueller-Hinton broth | 18 h, 37 °C | 128 µM
CC(C)C[C@H]1NC(=O)[C@H](Cc2c[nH]c3ccccc23)NC(=O)[C@@H](C(C)C)NC(=O)[C@@H]2CSC([C@H](C(C)C)NC(=O)[C@@H](C(C)C)NC(=O)[C@H](C(C)C)NC1=O)N2C |  | NCTC 8325, Mueller Hinton broth | 21 h, 37 °C | > 100 µg/mL
CC[C@H](C)[C@H](NC(=O)[C@H](Cc1c[nH]c2ccccc12)NC(=O)[C@H](CCCNC(=N)N)NC(=O)[C@@H](N)CCCNC(=N)N)C(=O)N[C@@H](CCCNC(=N)N)C(=O)N[C@@H](Cc1c[nH]c2ccccc12)C(=O)N[C@H](C(=O)N[C@H](C(N)=O)[C@@H](C)O)[C@@H](C)CC |  | 6538 |  | 32 µg/mL
CC1CCN(C(=O)c2cccc(NC(=O)Nc3ccc(N)cc3)c2)CC1 | checkerboard, refers to: ceftobiprole | CRB, PBP4 overexpressor | 25 µM | > 64 µg/mL
C#CCNC(=O)[C@H]1NC(=O)[C@H]2NC(=O)[C@H](NC(=O)[C@@H]3NC(=O)[C@H](CC(N)=O)NC(=O)[C@H](NC(=O)[C@@H](CC(C)C)NC)[C@H](O)c4ccc(c(Cl)c4)Oc4cc3cc(c4O[C@@H]3O[C@H](CO)[C@@H](O)[C@H](O)[C@H]3O[C@H]3C[C@](C)(N)[C@H](O)[C@H](C)O3)Oc3ccc(cc3Cl)[C@H]2O)c2ccc(O)c(c2)-c2c(O)cc(O)cc21 |  | VRSA 2 vanA |  | > 86 µM
CCCCCCCC[C@@H]1NC(=O)[C@@H](CCCN)NC(=O)[C@@H](NC(=O)[C@@H](NC(=O)[C@@H](CCC(=O)O)NC(=O)[C@H](CC(C)C)NC(=O)[C@@H]2CSC([C@@H](N)[C@@H](C)CC)=N2)[C@@H](C)CC)CCCCNC(=O)[C@H](CC(N)=O)NC(=O)[C@@H](CC(=O)O)NC(=O)[C@H](Cc2c[nH]cn2)NC(=O)[C@@H](Cc2ccccc2)NC1=O |  | USA300 MRSA | together with: ZnSO4 0.3 mM | 2 µg/mL
CN[C@H](CC(C)C)C(=O)N[C@H]1C(=O)N[C@@H](CC(N)=O)C(=O)N[C@H]2C(=O)N[C@H]3C(=O)N[C@H](C(=O)N[C@H](C(=O)O)c4cc(O)cc(O)c4-c4cc3ccc4O)[C@H](O)c3ccc(c(Cl)c3)Oc3cc2cc(c3O[C@@H]2O[C@H](CO)[C@@H](O)[C@H](O)[C@H]2O[C@H]2C[C@](C)(NCc3ccc(OCc4cn(CCCCC(=O)N[C@H](C(=O)N[C@@H](CCN)C(=O)N[C@H]5CCNC(=O)[C@H]([C@@H](C)O)NC(=O)[C@H](CCN)NC(=O)[C@H](CCN)NC(=O)[C@H](CC(C)C)NC(=O)[C@@H](CC(C)C)NC(=O)[C@H](CCN)NC5=O)[C@@H](C)O)nn4)c(OC)c3)[C@H](O)[C@H](C)O2)Oc2ccc(cc2Cl)[C@H]1O | broth microdilution | VISA NRS402, tryptic soy broth | 20 to 24 h, 37 °C, 0.002% polysorbate 80 | 2 µg/mL
CC[C@H](C)[C@H](NC(=O)[C@@H](CCCNC(=N)N)NC(=O)[C@H](CCCNC(=N)N)NC(=O)[C@@H]1CCCN1C(=O)[C@@H]1CCCN1C(=O)[C@H](CCCNC(=N)N)NC(=O)[C@@H]1CCCN1C(=O)[C@H](CCCNC(=N)N)NC(=O)[C@@H]1CCCN1C(=O)[C@H](CCSC)NC(=O)[C@H](Cc1ccc(O)cc1)NC(=O)[C@@H]1CCCN1C(=O)[C@@H]1CCCN1C(=O)[C@H](CCCCN)NC(=O)[C@H](CC(=O)O)NC(=O)[C@@H](N)C(C)C)C(=O)N[C@@H](Cc1ccc(O)cc1)C(=O)N[C@@H](CC(N)=O)C(=O)N[C@H](CCCNC(=N)N)C(N)=O | broth microdilution | DSM 6247 | 18 h, 37 °C, 25% MHB2 | > 128 µg/mL
Cc1ccc2[nH]c3c(c2c1)CCCC3NCCc1ccc(Br)cc1 (stereo not shown) | broth microdilution | SG511 daptomycin-resistant |  | 4 µg/mL

A few entries again:
SMILES | test | test system | conditions | MIC
CC[C@H](C)[C@H](NC(=O)[C@@H]1CCCN1C(=O)[C@H](CC(C)C)NC(=O)[C@@H](N)CC(C)C)C(=O)N[C@H](C(=O)NCC(=O)N[C@@H](CC(N)=O)C(=O)N[C@@H](CC(C)C)C(=O)N[C@@H](CC(C)C)C(=O)N[C@@H](CCCCN)C(=O)N[C@@H](CO)C(=O)N[C@@H](CC(C)C)C(=O)N[C@@H](CC(C)C)C(N)=O)C(C)C | broth dilution | ATCC 25923 | 24 h, 37 °C | 16 µg/mL
